Measured values gathered from unrelated publications.
Protocols differ between the studies behind these lines. ± marks the error that the study gave.
Chain of UniProt P0A725 (whole entry, looked up): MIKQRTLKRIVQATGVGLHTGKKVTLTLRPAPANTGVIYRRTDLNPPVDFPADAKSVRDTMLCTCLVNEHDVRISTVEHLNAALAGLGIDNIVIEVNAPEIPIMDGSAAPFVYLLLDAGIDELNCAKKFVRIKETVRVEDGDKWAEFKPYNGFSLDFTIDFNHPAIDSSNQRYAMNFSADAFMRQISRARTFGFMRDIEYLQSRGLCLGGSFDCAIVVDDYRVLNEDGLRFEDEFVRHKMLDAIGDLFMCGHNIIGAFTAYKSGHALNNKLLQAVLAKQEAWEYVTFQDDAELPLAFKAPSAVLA
Chain of UniProt G5EFZ1 (whole entry, looked up): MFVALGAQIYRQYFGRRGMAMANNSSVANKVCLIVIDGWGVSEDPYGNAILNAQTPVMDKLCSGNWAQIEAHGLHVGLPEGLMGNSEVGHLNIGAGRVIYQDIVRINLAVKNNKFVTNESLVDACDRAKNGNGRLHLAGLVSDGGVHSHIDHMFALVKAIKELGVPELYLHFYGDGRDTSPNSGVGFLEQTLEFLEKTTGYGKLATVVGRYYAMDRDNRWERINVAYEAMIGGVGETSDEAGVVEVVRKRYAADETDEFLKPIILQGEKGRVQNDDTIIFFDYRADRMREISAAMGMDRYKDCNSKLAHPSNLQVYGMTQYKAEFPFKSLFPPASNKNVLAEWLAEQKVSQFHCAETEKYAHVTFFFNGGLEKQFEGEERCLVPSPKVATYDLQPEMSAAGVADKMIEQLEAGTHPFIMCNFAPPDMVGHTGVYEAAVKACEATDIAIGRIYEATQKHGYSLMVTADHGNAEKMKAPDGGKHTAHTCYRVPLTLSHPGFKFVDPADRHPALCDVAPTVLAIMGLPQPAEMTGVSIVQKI

| Compound | target or system | test | test system | conditions | measurement | value |
| --- | --- | --- | --- | --- | --- | --- |
| O=C(O)CCC(NP(=O)(O)OCCC[C@@H](NC(=O)CCC(NC(=O)CCCCCNC(=O)CCCCCNC(=O)c1ccc([18F])cc1)C(=O)O)C(=O)O)C(=O)O (stereo partly shown) | CWR22Rv1 tumour model |  | host not given, muscle | intravenous, 1 h, tumour-bearing | tracer uptake | 0.15 %ID/g |
| C[C@@](O)(C(F)F)[C@H](NC(=O)c1ccc(C#CC#CC2CC2)cc1)C(=O)NO | UDP-3-O-acyl-N-acetylglucosamine deacetylase (Escherichia coli K-12, UniProt P0A725) | target binding in plasma, rapid equilibrium dialysis | mouse plasma | 10 µM, together with: LpxC 1 µM in buffer | buffer-to-plasma concentration ratio | 0.1 ± 0.03 |
| CN[C@](C)(C[18F])C(=O)O | SK-OV-3 tumour model |  | host not given, liver | 2 h, tumour-bearing | tracer uptake | 2.2 %ID/g |
| O=C(O)CCC(NP(=O)(O)OCCC[C@@H](NC(=O)CCC(NC(=O)c1ccc([18F])cc1)C(=O)O)C(=O)O)C(=O)O (stereo partly shown) | CWR22Rv1 tumour model |  | host not given, spleen | intravenous, 1 h, tumour-bearing | tracer uptake | 1.18 %ID/g |
| CCCCCc1cc(OC(=O)C(NC(=O)CCC(=O)O)C(C)C)c2c(c1)OC(C)(C)C1CCC(C)=CC21 (stereo not shown) |  |  | isolated rabbit cornea | 3 h, pH 7.4, 34 °C, donor 0.05% tyloxapol | Papp | 3.11 ± 0.4 ×10⁻⁶ cm/s |
| COc1ccc(CNc2nc(N3CCC[C@H]3CO)ncc2C(=O)NNC(=O)c2cnc(N3CCC[C@H]3CO)nc2NCc2ccc(OC)c(Cl)c2)cc1Cl | Salmonella typhimurium |  | TA1535 | 250 µg/plate, 48 h, together with: rat liver S9 | revertant count | 23 ± 2 |
| Nc1nc2c([C@@H]3O[C@@H]4COP(=O)(O)O[C@H]5[C@@H](O)[C@H](n6cnc7c(=O)[nH]c(N)nc76)O[C@@H]5COP(=O)(O)O[C@H]4[C@H]3O)snc2c(=O)[nH]1 |  |  | water |  | emission quantum yield | 0.048 |
| C[C@@H](O)[C@@H]1NC(=O)[C@H](CC(=O)O)NC(=O)[C@@H]2CCCN2C(=O)[C@H](Cc2ccc(O)cc2)NC(=O)CSC[C@@H](C(N)=O)NC(=O)[C@H](Cc2c[nH]cn2)NC(=O)[C@H](Cc2c[nH]c3ccccc23)NC(=O)[C@H](CCC(=O)O)NC(=O)[C@H](CC(=O)O)NC(=O)[C@H](Cc2ccc(O)cc2)NC(=O)[C@H](Cc2ccc(O)cc2)NC(=O)[C@H](Cc2c[nH]c3ccccc23)NC(=O)[C@H](Cc2c[nH]c3ccccc23)NC(=O)[C@H](CC(N)=O)NC1=O | cofactor-independent phosphoglycerate mutase (Metamycoplasma orale, UniProt A0A448ZXM1, W431C) | biochemical | Mycoplasma orale |  | AC50 | 3.31 µM |
| COc1ccc(CNc2nc(N3CCC[C@H]3CO)ncc2C(=O)NN)cc1Cl | Salmonella typhimurium |  | TA97a | 1000 µg/plate, 48 h | revertant count | 129 ± 17 |
| Nc1nc2c([C@@H]3O[C@@H]4COP(=O)(O)O[C@H]5[C@@H](O)[C@H](n6cnc7c(=O)[nH]c(N)nc76)O[C@@H]5COP(=O)(O)O[C@H]4[C@H]3O)scc2c(=O)[nH]1 |  |  | water |  | emission quantum yield | 0.18 |
| CC1=C[C@H]2c3c(O)cc(CCc4ccccc4)cc3OC(C)(C)[C@H]2CC1 |  | LC-MS/MS | male BALB/c mouse, brain | intraperitoneal, 50 mg/kg, 1 h, together with: Δ9-trans-THC 10 mg/kg and trans-PET 40 mg/kg | brain concentration | 1350 nM |
| CN(C)CC1CCCCC1(O)c1cccc(O)c1 (stereo not shown) | P-glycoprotein |  | Caco-2 TC7 | 1 µM, 3 h, pH 7.4, together with: cyclosporin A 10 µM | efflux ratio | 1 |
| COc1cc(C(=O)NCCOCCOCCOCCNC(=O)c2ccc([18F])nc2)ccc1NC(=O)C1NC(CC(C)(C)C)C(C#N)(c2ccc(Cl)cc2F)C1c1cccc(Cl)c1F (stereo not shown) | SJSA-1 tumour model |  | host not given, tumour | 1 h, tumour-bearing | tracer uptake | 1.32 %ID/g |
| CN1CCN(C(=O)N[C@@H](Cc2ccccc2)C(=O)N[C@H](/C=C/S(=O)(=O)c2ccccc2)CCc2ccccc2)CC1 | African green monkey cells | cytotoxicity |  |  | CC50 | > 100 µM |
| COc1ccc(C[C@H]2C(=O)N[C@@H](CC(N)=O)C(=O)N[C@@H](CC(=O)O)C(=O)N[C@@H](CO)C(=O)NCC(=O)N[C@@H](Cc3c[nH]c4ccccc34)C(=O)N(C)[C@@H](Cc3ccc(O)cc3)C(=O)N[C@@H](CC(N)=O)C(=O)N[C@@H]([C@@H](C)O)C(=O)N(C)[C@@H](Cc3ccccc3)C(=O)N[C@H](C(N)=O)CSCC(=O)N[C@@H](Cc3ccc(O)cc3)C(=O)N2C)cc1 | ipgm-1 (Caenorhabditis elegans, UniProt G5EFZ1) | enzyme activity |  |  | AC50 | 2.75 µM |
| CCC(=O)N(C)c1ccc(Cl)c(Cl)c1 | Salmonella typhimurium | Ames test | TA1537 | 5.00 mg/plate, without S9 activation | revertants | 0 revertants/plate |

Excerpt of the above:
| Compound | target or system | test | test system | conditions | measurement | value |
| --- | --- | --- | --- | --- | --- | --- |
| CN1CCN(C(=O)N[C@@H](Cc2ccccc2)C(=O)N[C@H](/C=C/S(=O)(=O)c2ccccc2)CCc2ccccc2)CC1 | African green monkey cells | cytotoxicity |  |  | CC50 | > 100 µM |
| COc1ccc(C[C@H]2C(=O)N[C@@H](CC(N)=O)C(=O)N[C@@H](CC(=O)O)C(=O)N[C@@H](CO)C(=O)NCC(=O)N[C@@H](Cc3c[nH]c4ccccc34)C(=O)N(C)[C@@H](Cc3ccc(O)cc3)C(=O)N[C@@H](CC(N)=O)C(=O)N[C@@H]([C@@H](C)O)C(=O)N(C)[C@@H](Cc3ccccc3)C(=O)N[C@H](C(N)=O)CSCC(=O)N[C@@H](Cc3ccc(O)cc3)C(=O)N2C)cc1 | ipgm-1 (Caenorhabditis elegans, UniProt G5EFZ1) | enzyme activity |  |  | AC50 | 2.75 µM |
| CCC(=O)N(C)c1ccc(Cl)c(Cl)c1 | Salmonella typhimurium | Ames test | TA1537 | 5.00 mg/plate, without S9 activation | revertants | 0 revertants/plate |
